{"data": "Measurements gathered from unrelated publications", "target": "Ribosomal protein S6 kinase alpha-4 (RPS6KA4, Homo sapiens, UniProt O75676)", "note": "Lines come from different studies, so protocols differ. Values joined by “and” are separate records of one study, mostly repeats; a detail may differ."}
{"SMILES": "CN1CCN(Cc2ccc(-c3ccc(CO[C@H]4CCC[C@@H]4NC(=O)c4cc(-c5cnn(C)c5)cnc4N)cc3)cc2)CC1", "assay": "enzyme activity, inhibitor", "conditions": "0.1 µM", "measurement": "inhibition", "value": "6%"}
{"SMILES": "COCC12C(=O)NC3C4(C(OC)CC1O)C1CC5(O)C(OC)C(O)C(OC(C)=O)(C1C5OC(=O)c1ccccc1)C3(O)C(OC)C24 (stereo not drawn)", "assay": "kinase activity, inhibitor, ProQinase kinase profiling", "conditions": "25 µM", "scale": "relative to: control", "measurement": "remaining activity", "value": "99% and 98%"}
{"SMILES": "O=C=[N][Ru-4]123([n]4c5ccc(O)cc5c5c6c(c7cc(F)c[n+]1c7c54)C(=O)NC6=O)[S+]1CC[S+]2CC[S+]3CC1 (stereo not drawn)", "assay": "enzyme activity", "conditions": "100 nM, human enzyme, with: 10 µM ATP", "scale": "relative to: untreated", "measurement": "remaining activity", "value": "22%"}
{"SMILES": "CCn1cc(C(=O)O)c(=O)c2c(N)c(F)c(NC3CCCCC3)cc21", "assay": "kinase activity", "conditions": "0.1 µM, with: ATP at Km", "measurement": "inhibition", "value": "7.7%"}
{"SMILES": "NC(=O)[C@@H](O)C[C@H]1CCc2sc3ncnc(O[C@H]4CC[C@H](N5CCOCC5)CC4)c3c21", "assay": "enzyme activity, inhibitor", "conditions": "10 µM", "measurement": "inhibition", "value": "10%"}
{"SMILES": "C=CC(=O)Nc1cccc(-c2cnc3[nH]cc(C(=O)NC(C)(C)C)c3n2)c1", "assay": "enzyme activity, inhibitor", "conditions": "0.1 µM", "measurement": "inhibition", "value": "6%"}
{"SMILES": "O=C(Cc1ccc(OCc2ccccc2)cc1)NC1(C(=O)O)CCN(C(=O)c2ccc(-c3cccc(Cl)c3)cc2)CC1", "assay": "enzyme activity, inhibitor", "conditions": "10 µM", "measurement": "activity vs control", "value": "93%"}
{"SMILES": "Nc1ncc(-c2cc(-c3cnn(CC(F)(F)F)c3)ncc2F)nc1C(=O)NC1CNCC(F)C1 (stereo not drawn)", "assay": "enzyme activity", "conditions": "1 µM", "scale": "relative to: DMSO control", "measurement": "remaining activity", "value": "106%"}
{"SMILES": "NC(=O)C[C@H]1CCc2sc3ncnc(O[C@H]4CC[C@H](N5CCOCC5)CC4)c3c21", "assay": "enzyme activity, inhibitor", "conditions": "10 µM", "measurement": "inhibition", "value": "5%"}
{"SMILES": "C=CC(=O)N1Cc2nc(-c3cc(-c4cc(Cl)cnc4Cl)c(F)cc3F)n(-c3ccncn3)c2C1", "assay": "cell-free assay, inhibitor", "conditions": "1 µM", "measurement": "inhibition", "value": "6.6%"}
{"SMILES": "CN1CC[C@@H](COc2cnc(C#N)cc2-c2ccn3nc(NC(=O)C4CC4)cc3c2)C1", "assay": "enzyme activity, inhibitor", "conditions": "1 µM", "measurement": "inhibition", "value": "-2%"}
{"SMILES": "COc1ccc(C(=O)/C=C/c2ccccc2-c2c[nH]c3ccc(C#N)cc23)c(O)c1", "assay": "enzyme activity, inhibitor", "conditions": "20 µM", "measurement": "inhibition", "value": "26%"}
{"SMILES": "CNC(=O)C[C@H](Cc1ccc(C#N)cc1)NC(=O)c1cc(-c2ccc(CN[C@H](C)c3ccc(C)cc3)o2)ccc1Cl", "assay": "enzyme activity, inhibitor", "conditions": "1 µM", "measurement": "activity vs control", "value": "86%"}
{"SMILES": "COc1c(OCCCN2CCOCC2)ccc2c1N=C(NC(=O)c1cnc(N)nc1)N1CCN=C21", "assay": "kinase activity, inhibitor", "conditions": "1 µM", "scale": "relative to: untreated control", "measurement": "remaining activity", "value": "98%"}
{"SMILES": "COc1ccc(NC(=O)Nc2ccc3c(c2)C(=O)N(C(C)CO)CC(C)C(CN(C)Cc2ccc4c(c2)OCO4)O3)cc1 (stereo not drawn)", "assay": "kinase activity, KinaseProfiler", "conditions": "0.03 µM, species human", "scale": "relative to: control", "measurement": "remaining activity", "value": "103%"}
{"SMILES": "Cc1cccc(O[C@H]2CCC[C@@H](C(C)CNCc3ccncc3)C2)c1 (relative stereo)", "assay": "enzyme activity, inhibitor", "conditions": "1 µM", "measurement": "inhibition", "value": "2%"}
{"SMILES": "O=C(O)CCC(=O)c1cccc(NS(=O)(=O)c2c[nH]c3ncccc23)c1", "assay": "kinase activity, radiometric", "conditions": "10 µM", "measurement": "remaining activity", "value": "108%"}
{"SMILES": "Cc1nc2c(F)cc(-c3nc(Nc4ccc(CNC(=O)CCCCCCC(=O)NO)cc4)ncc3F)cc2n1C(C)C", "assay": "enzyme activity, inhibitor", "conditions": "1 µM", "measurement": "inhibition", "value": "82%"}
{"note": "A few entries again:"}
{"SMILES": "O=C(Cc1ccc(OCc2ccccc2)cc1)NC1(C(=O)O)CCN(C(=O)c2ccc(-c3cccc(Cl)c3)cc2)CC1", "assay": "enzyme activity, inhibitor", "conditions": "10 µM", "measurement": "activity vs control", "value": "93%"}
{"SMILES": "COc1c(OCCCN2CCOCC2)ccc2c1N=C(NC(=O)c1cnc(N)nc1)N1CCN=C21", "assay": "kinase activity, inhibitor", "conditions": "1 µM", "scale": "relative to: untreated control", "measurement": "remaining activity", "value": "98%"}
{"SMILES": "Cc1cccc(O[C@H]2CCC[C@@H](C(C)CNCc3ccncc3)C2)c1 (relative stereo)", "assay": "enzyme activity, inhibitor", "conditions": "1 µM", "measurement": "inhibition", "value": "2%"}
